Assay results of several laboratories.
Lines come from different studies, so protocols differ.
Organism: Pseudomonas aeruginosa

With `CC[C@H](C)[C@H](NC(=O)[C@H](C)NC(=O)[C@@H](NC(=O)[C@H](CC(=O)O)NC(=O)[C@H](CCCCN)NC(=O)[C@H](CO)NC(=O)[C@@H](NC(=O)[C@H](CC(N)=O)NC(=O)[C@H](C)NC(=O)[C@@H](NC(=O)[C@H](CCC(=O)O)NC(=O)[C@H](CCCCN)NC(=O)[C@@H](NC(=O)[C@@H](NC(=O)[C@H](Cc1c[nH]cn1)NC(=O)[C@H](CCCCN)NC(=O)[C@@H](NC(=O)[C@H](CCCCN)NC(=O)[C@H](CCCCN)NC(=O)[C@@H](NC(=O)[C@H](CC(C)C)NC(=O)[C@H](CCCCN)NC(=O)[C@H](CC(N)=O)NC(=O)[C@H](Cc1ccccc1)NC(=O)[C@H](CCCNC(=N)N)NC(=O)[C@H](CCCCN)NC(=O)[C@H](CCCNC(=N)N)NC(=O)[C@H](Cc1ccccc1)NC(=O)CN)C(C)C)C(C)C)[C@@H](C)O)[C@@H](C)CC)[C@@H](C)O)C(C)C)C(C)C)C(=O)N[C@H](C(=O)N[C@@H](C)C(=O)NCC(=O)N[C@@H](CO)C(=O)NCC(=O)N[C@H](C(=O)N[C@@H](C)C(=O)N[C@H](C(=O)NCC(=O)N[C@@H](C)C(=O)N[C@@H](C)C(=O)N[C@@H](CCSC)C(N)=O)C(C)C)C(C)C)C(C)C` the MIC was 16 µg/mL (ATCC 27853, CAMHB with 10% mouse serum).
For `CC(C)C[C@@H]1NC(=O)[C@@H](CC(C)C)NC(=O)[C@H](CCN)NC(=O)[C@@H](NC(=O)[C@H](CCN)NC(=O)[C@@H](NC(=O)CN=[N+]=[N-])[C@@H](C)O)CCNC(=O)[C@H]([C@@H](C)O)NC(=O)[C@H](CCN)NC(=O)[C@H](CCN)NC1=O`, the MIC was 63 µM (broth microdilution; ATCC 25922, cation-adjusted Mueller-Hinton broth).
`CCCCCCCC(=O)N[C@@H](CCN)C(=O)N[C@H](C(=O)N[C@@H](CCN)C(=O)N[C@H]1CCNC(=O)[C@H]([C@@H](C)O)NC(=O)[C@H](CCN)NC(=O)[C@H](CCN)NC(=O)[C@H](Cc2ccccc2)NC(=O)[C@@H](CCCCCC)NC(=O)[C@H](CCN)NC1=O)[C@@H](C)O` gave an MIC of 0.25 to 0.5 µg/mL (broth microdilution; colistin-resistant isolates).
With `CN[C@H](CC(C)C)C(=O)N[C@H]1C(=O)N[C@@H](CC(N)=O)C(=O)N[C@H]2C(=O)N[C@H]3C(=O)N[C@H](C(=O)N[C@H](C(=O)N[C@@H](CCCNC(=N)N)C(N)=O)c4cc(O)cc(O)c4-c4cc3ccc4O)[C@H](O)c3ccc(c(Cl)c3)Oc3cc2cc(c3O[C@@H]2O[C@H](CO)[C@@H](O)[C@H](O)[C@H]2O[C@H]2C[C@](C)(NCc3ccc(OCc4cn(CC(=O)N[C@H](C(=O)N[C@@H](CCN)C(=O)N[C@H]5CCNC(=O)[C@H]([C@@H](C)O)NC(=O)[C@H](CCN)NC(=O)[C@H](CCN)NC(=O)[C@H](CC(C)C)NC(=O)[C@@H](CC(C)C)NC(=O)[C@H](CCN)NC5=O)[C@@H](C)O)nn4)c(OC)c3)[C@H](O)[C@H](C)O2)Oc2ccc(cc2Cl)[C@H]1O` the MIC was 11 µM (broth microdilution; ATCC 13883, cation-adjusted Mueller-Hinton broth).
The MIC of `CC[C@H](C)[C@H](NC(=O)[C@@H](CCCNC(=N)N)NC(=O)[C@H](CCCNC(=N)N)NC(=O)[C@@H]1CCCN1C(=O)[C@@H]1CCCN1C(=O)[C@H](CCCNC(=N)N)NC(=O)[C@@H]1CCCN1C(=O)[C@H](CCCNC(=N)N)NC(=O)[C@@H]1CCCN1C(=O)[C@H](CC(C)C)NC(=O)[C@H](Cc1ccc(O)cc1)NC(=O)[C@@H]1CCCN1C(=O)[C@H](Cc1ccc(O)cc1)NC(=O)[C@H](CCCCN)NC(=O)[C@H](CC(=O)O)NC(=O)[C@@H](N)C(C)C)C(=O)N[C@@H](Cc1ccc(O)cc1)C(=O)N[C@@H](CC(N)=O)C(=O)N[C@H](CCCNC(=N)N)C(N)=O` is reported as 128 µg/mL (broth microdilution; DSM 1117; 18 h, 37 °C, 25% MHB2).
`CCn1c(-c2ccc(F)cc2)c(-c2ccc(F)cc2)n(CCOC)c1=[Se]` gave an MIC of > 40 µM (broth microdilution; carbapenem-resistant BAA-2108; 24 h).
`CC(C)C[C@@H]1NC(=O)[C@@H](CC(C)C)NC(=O)[C@H](CCN)NC(=O)[C@@H](NC(=O)[C@H](CCN)NC(=O)[C@@H](NC(=O)CCOCCOCCOCCN=[N+]=[N-])[C@@H](C)O)CCNC(=O)[C@H]([C@@H](C)O)NC(=O)[C@H](CCN)NC(=O)[C@H](CCN)NC1=O` gave an MIC of 28 µM (broth microdilution; ATCC 13883, cation-adjusted Mueller-Hinton broth).
The MIC of `CC(C)C[C@H](NC(=O)[C@H](CCCCN)NC(=O)[C@H](CC(C)C)NC(=O)[C@H](CCCCN)NC(=O)C1CCC=CCCC(NC(=O)[C@H](CCCCN)NC(=O)[C@H](CC(C)C)NC(=O)[C@H](CCCCN)NC(=O)[C@@H](N)CC(C)C)C(=O)N[C@@H](CCCCN)C(=O)N2CCC[C@@H]2C(=O)NCC(=O)N[C@@H](CCCCN)C(=O)N1)C(N)=O` (stereo partly shown) is reported as 16 µM (broth microdilution; ATCC 9027, Mueller-Hinton broth; 18 h, 37 °C).
`CC[C@H](C)[C@H](NC(=O)[C@@H](CCCNC(=N)N)NC(=O)[C@H](CCCNC(=N)N)NC(=O)[C@@H]1CCCN1C(=O)[C@@H]1CCCN1C(=O)[C@H](CCCNC(=N)N)NC(=O)[C@@H]1CCCN1C(=O)[C@H](CCCNC(=N)N)NC(=O)[C@@H]1CCCN1C(=O)[C@H](CCSC)NC(=O)[C@H](Cc1ccc(O)cc1)NC(=O)[C@@H]1CCCN1C(=O)[C@@H]1CCCN1C(=O)[C@H](CCCCN)NC(=O)[C@H](CC(=O)O)NC(=O)[C@@H](N)C(C)C)C(=O)N[C@@H](Cc1ccc(O)cc1)C(=O)N[C@@H](CC(N)=O)C(=O)N[C@H](CCCNC(=N)N)C(N)=O` has an MIC of 128 µg/mL (broth microdilution; DSM 1117; 18 h, 37 °C, 25% MHB2).
`CC[C@H](C)[C@H](NC(=O)[C@H](CCCCN)NC(=O)[C@H](CCCNC(=N)N)NC(=O)[C@H](Cc1c[nH]c2ccccc12)NC(=O)[C@@H](NC(=O)[C@H](CCCCN)NC(=O)[C@H](CCCNC(=N)N)NC(=O)[C@@H](NC(=O)[C@H](CCCNC(=N)N)NC(=O)[C@H](CCCCN)NC(=O)[C@H](CCCNC(=N)N)NC(=O)[C@H](CC(C)C)NC(=O)[C@H](CCCNC(=N)N)NC(=O)[C@H](CO)NC(=O)[C@H](Cc1ccccc1)NC(=O)[C@H](CCCNC(=N)N)NC(=O)CN)[C@@H](C)CC)C(C)C)C(=O)NCC(=O)N1CCC[C@H]1C(=O)N[C@H](C(=O)N[C@@H](C)C(=O)NCC(=O)N1CCC[C@H]1C(=O)N[C@H](C(=O)N[C@H](C(=O)NCC(=O)N[C@@H](Cc1c[nH]cn1)C(=O)N[C@@H](Cc1ccccc1)C(=O)NCC(=O)O)[C@@H](C)CC)[C@@H](C)CC)[C@@H](C)CC` has an MIC of 16 µg/mL (CLSI agar dilution; ATCC 27853; 20 h, 37 °C).

Excerpt of the above:
With `CN[C@H](CC(C)C)C(=O)N[C@H]1C(=O)N[C@@H](CC(N)=O)C(=O)N[C@H]2C(=O)N[C@H]3C(=O)N[C@H](C(=O)N[C@H](C(=O)N[C@@H](CCCNC(=N)N)C(N)=O)c4cc(O)cc(O)c4-c4cc3ccc4O)[C@H](O)c3ccc(c(Cl)c3)Oc3cc2cc(c3O[C@@H]2O[C@H](CO)[C@@H](O)[C@H](O)[C@H]2O[C@H]2C[C@](C)(NCc3ccc(OCc4cn(CC(=O)N[C@H](C(=O)N[C@@H](CCN)C(=O)N[C@H]5CCNC(=O)[C@H]([C@@H](C)O)NC(=O)[C@H](CCN)NC(=O)[C@H](CCN)NC(=O)[C@H](CC(C)C)NC(=O)[C@@H](CC(C)C)NC(=O)[C@H](CCN)NC5=O)[C@@H](C)O)nn4)c(OC)c3)[C@H](O)[C@H](C)O2)Oc2ccc(cc2Cl)[C@H]1O` the MIC was 11 µM (broth microdilution; ATCC 13883, cation-adjusted Mueller-Hinton broth).
